Results of several laboratories.
Each line is one published result; not all experiments were run side by side. ± gives the spread as reported.

Protein sequences, listed by entry. Tags and fused reporters are not part of them.
UniProt P11229, whole entry: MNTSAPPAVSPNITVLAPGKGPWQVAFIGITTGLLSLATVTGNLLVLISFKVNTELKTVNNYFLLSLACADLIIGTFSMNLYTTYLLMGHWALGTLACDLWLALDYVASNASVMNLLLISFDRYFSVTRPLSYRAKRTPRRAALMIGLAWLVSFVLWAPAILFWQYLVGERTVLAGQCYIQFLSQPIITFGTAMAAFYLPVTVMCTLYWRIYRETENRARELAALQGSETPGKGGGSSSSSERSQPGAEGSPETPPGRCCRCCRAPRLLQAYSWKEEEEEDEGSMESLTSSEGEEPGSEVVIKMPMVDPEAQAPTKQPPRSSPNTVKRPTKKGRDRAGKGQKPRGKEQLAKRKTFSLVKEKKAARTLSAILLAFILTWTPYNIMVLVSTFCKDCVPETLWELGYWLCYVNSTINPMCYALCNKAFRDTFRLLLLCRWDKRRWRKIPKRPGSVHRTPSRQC
UniProt Q07912, whole entry: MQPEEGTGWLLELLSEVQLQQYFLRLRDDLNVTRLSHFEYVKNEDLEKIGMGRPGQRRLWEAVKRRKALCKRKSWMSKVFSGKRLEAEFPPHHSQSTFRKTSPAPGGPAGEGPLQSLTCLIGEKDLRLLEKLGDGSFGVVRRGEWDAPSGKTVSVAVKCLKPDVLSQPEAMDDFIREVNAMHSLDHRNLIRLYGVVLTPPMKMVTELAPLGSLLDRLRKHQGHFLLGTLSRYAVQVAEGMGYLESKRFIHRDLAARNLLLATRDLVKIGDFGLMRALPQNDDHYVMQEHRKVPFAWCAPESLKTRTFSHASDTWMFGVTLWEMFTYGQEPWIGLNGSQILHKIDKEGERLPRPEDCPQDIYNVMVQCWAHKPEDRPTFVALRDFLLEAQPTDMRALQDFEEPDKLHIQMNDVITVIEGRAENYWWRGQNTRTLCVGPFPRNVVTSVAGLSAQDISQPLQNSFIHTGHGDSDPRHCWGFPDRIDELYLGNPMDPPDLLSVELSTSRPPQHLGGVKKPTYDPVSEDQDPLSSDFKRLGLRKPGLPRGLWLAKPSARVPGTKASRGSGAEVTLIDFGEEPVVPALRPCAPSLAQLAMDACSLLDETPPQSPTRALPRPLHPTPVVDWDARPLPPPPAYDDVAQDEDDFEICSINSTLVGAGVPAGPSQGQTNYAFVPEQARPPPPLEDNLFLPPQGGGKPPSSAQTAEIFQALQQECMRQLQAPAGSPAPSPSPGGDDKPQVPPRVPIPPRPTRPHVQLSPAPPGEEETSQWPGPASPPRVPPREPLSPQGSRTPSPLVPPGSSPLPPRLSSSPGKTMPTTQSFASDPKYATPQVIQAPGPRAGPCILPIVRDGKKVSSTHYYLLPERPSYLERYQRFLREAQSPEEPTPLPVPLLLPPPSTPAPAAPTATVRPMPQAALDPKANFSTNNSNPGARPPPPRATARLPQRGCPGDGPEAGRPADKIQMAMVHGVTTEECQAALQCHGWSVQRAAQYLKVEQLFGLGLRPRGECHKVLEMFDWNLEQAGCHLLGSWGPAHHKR

`O=C(O)C(=O)Nc1ccc(C#Cc2ccc(C(F)(F)F)cc2Cl)cc1`: AKT phosphorylation “decreased” (mPTPB (Mycobacterium tuberculosis); inhibitor, western blot, measured: phospho-AKT; RAW264.7 expressing HA-mPTPB; 5 to 40 nM, 2 h, with: IFN-γ).
For `CCCc1nc2c(NP(=O)(OCC)OCC)nc3ccccc3c2s1`, agonist activity read “inactive” (human TLR7 or TLR8; reporter gene, agonist; concentration not given, receptor not specified).
With `c1ccc(Nc2cccc3ccccc23)cc1` the Kd was 790 ± 270 nM (Manis javanica OBP3 Y87A; binding, fluorescence binding; with: 1-NPN probe).
The ΔΔlog(τ/KA) of `U-69593` is reported as 0 (human kappa opioid receptor; G protein over ERK1/2, operational model; unit not given; reference: reference agonist).
For `methylarsonous diiodide`, the IC50 was 92.1 nM (pyruvate dehydrogenase complex, porcine; enzyme activity, inhibitor; 1 h, 1 h preincubation).
With `CCCN1CCN(c2ccc3c(c2)C2CC3CCN2C(=O)OCc2ccccc2)CC1` (centres unmarked) the Ki was 4060 nM (Muscarinic acetylcholine receptor M1 (CHRM1, Homo sapiens, UniProt P11229); binding, radioligand binding).
`CCN1CCN(Cc2ccc(NC(=O)c3ccc(C)c(/C=C/c4cnc5[nH]ccc5c4OC)c3)cc2C(F)(F)F)CC1` — result for “log2 fold change”: -1.2 (ETV6-FGFR3 fusion; kinase-CDC37 interaction, inhibitor; human cells; 5 µM; reference: vehicle).
For `CC[C@H](C)[C@@H]1NC(=O)[C@H](CCC(=O)O)NC(=O)[C@@H]2CCCN2C(=O)[C@H](Cc2c[nH]cn2)NC(=O)[C@H](CC(=O)O)NC(=O)[C@H](Cc2ccc(O)cc2)NC(=O)[C@H](CC(N)=O)NC(=O)[C@@H]2CSSC[C@@H]3NC(=O)CNC(=O)CNC(=O)CNC(=O)[C@H](C)NC(=O)[C@H](C)NC(=O)CNC(=O)CNC(=O)[C@H](CSSC[C@H](NC3=O)C(=O)N[C@@H](CO)C(=O)N[C@@H](CC(=O)O)C(=O)N3CCC[C@H]3C(=O)N[C@@H](CCCNC(=N)N)C(=O)N2)NC1=O`, the inhibition was 15 ± 3.2% (Cav2.3c human Y1765F; Ba2+ current; 200 nM).
`pralidoxime iodide` — result for “reactivation rate ratio”: 50 fold (butyrylcholinesterase (pig), DFP-inhibited; reactivator; reference: kr over kr acetylcholinesterase (human)).
For `U-69593`, the Emax was 30% (opioid receptors, mouse; G protein activation, agonist; C57BL/6 wild-type mouse striatal membranes; reference: vehicle).
`CCC(C)C1NC(=O)/C(=C(/C)O)C1=O` (centres unmarked) has a specific activity of 10.1 Pi/mg protein/min (spinach plasma membrane H+-ATPase; enzyme activity; 20 µM, 10 min, without fusicoccin or 14-3-3).
`diisopropyl fluorophosphate` gave an inhibition of about 22% (bovine lens protease; enzyme activity, inhibitor; lens protease-rich fraction; 1 mM, 30 min preincubation, 37 °C, with: MCA-62 to 70 substrate).
With `13-desmethyl spirolide C` the IC50 was 6.84 ± 1.15 nM (nicotinic acetylcholine receptor (Torpedo marmorata); binding; methanol standard, with: biotin-α-bungarotoxin 80 nM).
Under “decrease in cleavage complex half-life”, `Cc1c(N2CC[C@@H](CN)C2)c(F)cc2c(=O)n(N)c(=O)n(C3CC3)c12` is recorded as at most 30% (Staphylococcus aureus topoisomerase IV GrlA S81F; DNA cleavage complex stability; 20 µM; reference: wild type).
For `CC#C/C(=N\OC[C@H]1COCCN1)c1ccc2ncnc(Nc3ccc(OCc4cccc(F)c4)c(Cl)c3)c2c1`, the inhibition was 30.6% (Activated CDC42 kinase 1 (TNK2, Homo sapiens, UniProt Q07912); kinase activity; 10 µM).
The CC3 of `C[C@H]1COc2c(N3CCN(C)CC3)c(F)cc3c(=O)c(C(=O)O)cn1c23` is reported as 38.8 µM (Staphylococcus aureus topoisomerase IV GrlA S81F; DNA cleavage).
For `CC(C)[C@H]1CC[C@@H](N2CCC(n3c(CO)cc4ccccc43)CC2)CC1`, the inhibition was 60% (α1 adrenergic receptor; radioligand binding; 10 µM).

Some of these lines once more:
For `CCCc1nc2c(NP(=O)(OCC)OCC)nc3ccccc3c2s1`, agonist activity read “inactive” (human TLR7 or TLR8; reporter gene, agonist; concentration not given, receptor not specified).
With `c1ccc(Nc2cccc3ccccc23)cc1` the Kd was 790 ± 270 nM (Manis javanica OBP3 Y87A; binding, fluorescence binding; with: 1-NPN probe).
